Results gathered from unrelated publications.
A part holds a random share of what one study measured. Positions count from the first letter of the parent shown.

Block 1 — target: CCND1, cyclin fold, Cln2 fusion (human); technique: yeast growth competition, sequencing; sample: yeast; notes: weak parent motif; baseline: not given; direction: higher = stronger binding
Parent: USP37 docking peptide (human); PSAKRSLGFLPQP
Change	normalised enrichment score
PSAKRSLGALPQP [F9A]	-0.165
PSAKRALGFLPQP [S6A]	0.365
PSAKRSAGFLPQP [L7A]	-0.137
PAAKRSLGFLPQP [S2A]	0.187
PSAKRSLGFLAQP [P11A]	-0.197
PSAKRSLGFAPQP [L10A]	-0.0134

Block 2 — target: CEBPB, bZIP domain (human); technique: DHFR protein complementation; sample: yeast; baseline: wild-type JUN-FOS pair; direction: higher = stronger binding
Notes: single substitutions, most at no-binding floor
Parent: JUN, bZIP domain (human); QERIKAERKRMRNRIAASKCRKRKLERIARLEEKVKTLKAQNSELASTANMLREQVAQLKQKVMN; partner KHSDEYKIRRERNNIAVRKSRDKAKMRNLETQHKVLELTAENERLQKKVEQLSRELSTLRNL
Change	binding fitness
S47V	-1.21 natural log
V56R	-1.53 natural log
K39H	-1.33 natural log
E32V	-1.4 natural log
L45D	-1.59 natural log
A57M	-1.42 natural log
I28G	-1.19 natural log
M51W	-1.32 natural log
E44L	-1.39 natural log
V35K	-1.46 natural log
L38G	-1.41 natural log
V35C	-1.44 natural log
V35S	-1.49 natural log
T48F	-1.43 natural log
K34R	-1.08 natural log
V56A	-1.52 natural log
R53H	-1.35 natural log
E44W	-1.51 natural log
S43I	-1.31 natural log

Block 3 — technique: EMSA with sequencing; form: double-stranded DNA, one strand shown; sample: in vitro; tested at: 10 and 20 nM; baseline: negative control set to 0; direction: higher = stronger binding
Target: Hepatocyte nuclear factor 3-alpha (Foxa1, Mus musculus, UniProt P35582, residues 1-468, full length assumed)
Notes: whole designed probe, mean of two concentrations, ends assumed
Shared flanks, not repeated: GTGAGCGGTGCCCATTGATGGGGAAC … TTTCACTGGGATCGTGGGGAC
Target sequence (chain): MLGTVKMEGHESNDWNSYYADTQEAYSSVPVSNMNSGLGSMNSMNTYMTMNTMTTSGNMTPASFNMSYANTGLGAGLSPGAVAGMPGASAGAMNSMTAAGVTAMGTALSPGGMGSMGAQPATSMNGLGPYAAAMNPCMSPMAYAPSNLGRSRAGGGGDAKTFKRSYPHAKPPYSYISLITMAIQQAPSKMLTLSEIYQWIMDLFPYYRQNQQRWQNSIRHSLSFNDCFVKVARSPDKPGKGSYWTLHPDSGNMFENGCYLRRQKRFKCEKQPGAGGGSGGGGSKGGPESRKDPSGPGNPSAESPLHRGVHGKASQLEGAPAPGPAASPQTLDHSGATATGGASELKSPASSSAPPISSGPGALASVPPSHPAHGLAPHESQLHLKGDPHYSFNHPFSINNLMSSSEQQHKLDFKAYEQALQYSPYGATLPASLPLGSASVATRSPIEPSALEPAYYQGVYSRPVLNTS
Strand	normalised bound fraction
ATCTTCCCCCTCTTCCTTGCCCCACCAGCTCACCTTCCCGGGTTATTTGCAGATAGGAAAATAAATAAAGCCGGCATTCGTTAACCCTCTTCTGGCGCAAACTGCTGTTTGCTCTGGATGAATCATGGTCCTTTGGCGACGCCAGGCTGAGCACACATCAGCGCGGGAGTCAGGGCCATGATCCGGGGTGGCC	0.357 ratio
CACATGTCAGTAATAGTGCTGTATTACTGACCTAGAAATTTAATTGTTCCGTGCTCTTAAGGTTTCAGTATTAAATGTGGAAATTATTTAAGAGCAAACAAATTGATATTACTGCAGCTTCATAAAGAAGAATATCAAACTGTGGTCTCTGTTTTTTGTCTTTCAAAGCAAGAAGTGGTGGAGAAATATGAAA	0.142 ratio
GTCAATTACGTGGGAAATAAAGATAAGGCAAATGCACTTGGTTCTCTGAACTATTCTGACATTAGAAGAAATGCCAAGTCAGCAGATATCTGCAGATTACATTTCACAATAACCTAATCATGCATTTGCAGCTTTCTGGAGCAAAACACTAACTGTTCTCCAAACAGCCACCTGACAATCTAAGGCTGAAACA	-0.0323 ratio
ATCTTCCCCCTCTTCCTTGCCCCACCAGCTCACCTTCCCGGGTTATTTGCAGATAGGAAAATAAATAAAGCCGGCATTCGTTAACCCTCTTCACGCGCATACTGCCAGAGCAAACAGATCTAACGATGAATCATGGCGACGCCAGGCTCCGGGAGAGCAAAGCACCGTGTCAGGGCCATGATCCGGGGTGGCC	0.396 ratio
AACACCAAACATAATTTAAAGATTTAATATACAAGTGTCTTGTTAGAAATAAAAACTTTCAGGGGGGTAATAAGGAAAAGAGATTGAATGCAAAGTAATCTAGCAATTTTGCTAAACAGTGACAATTACATCAACCTGACTTAAAGCAAAAGACTTAGATTGCTGTGTGTATATATATATACCTACAGATATA	0.0217 ratio
TACTTATGGGTTGATTTCTGGAATCATTGCTTTATTTGGTGGTATTCACTAAGTAGGTCACTTGCATTCATTTACATAGGAAAGCTGCTTGTGTAATTTGCAAGGTCCCTTATGAGTCAGCATTACATGTCAGCATAAAGGGAGAAAACACGAAGCATTTTACAAATAATACTCTTTAGGTGAACACATTTTG	0.113 ratio
CAAGTTTGTGGTCCAGGAGCAACAGGTTATGCCATACAGCCTAGGTGTGTAGTAGGCTACACACCGTCTATGTTTGTGTTGTACACTCTTTGTGCAAACATTGTTGATCCATGACTCATGAAATCTTCTCAGAACATACCCCTGTTGTTAAGCGATACATGACTGTACTTTTTTTAAAAAGTCCAAGGATATA	0.45 ratio
ATCTTCCCCCTCTTCCTTGCCCCACCAGCTCACCTTCCCGGGTTATTTGCAGATAGGAAAATAAATAAAGCCGGCATTCGTTAACCCTCTTCAGATGAATCATGCTGTTTGCTCTGGATCTAACATGGTCCTTTGGCGACGCCAGGCTCCGGGAGAGCAAAGCACCGTGTCAGGGCCATGATCCGGGGTGGCC	0.358 ratio

Block 4 — technique: universal PBM; form: double-stranded DNA, one strand shown; sample: in vitro; tested at: not given; direction: higher = stronger binding
Target: Sal-like protein 4, full length isoform B (SALL4, Homo sapiens, UniProt Q9UJQ4-2, residues 1-616)
Notes: 8-mer, flanks averaged, mean of replicates
Target sequence (chain): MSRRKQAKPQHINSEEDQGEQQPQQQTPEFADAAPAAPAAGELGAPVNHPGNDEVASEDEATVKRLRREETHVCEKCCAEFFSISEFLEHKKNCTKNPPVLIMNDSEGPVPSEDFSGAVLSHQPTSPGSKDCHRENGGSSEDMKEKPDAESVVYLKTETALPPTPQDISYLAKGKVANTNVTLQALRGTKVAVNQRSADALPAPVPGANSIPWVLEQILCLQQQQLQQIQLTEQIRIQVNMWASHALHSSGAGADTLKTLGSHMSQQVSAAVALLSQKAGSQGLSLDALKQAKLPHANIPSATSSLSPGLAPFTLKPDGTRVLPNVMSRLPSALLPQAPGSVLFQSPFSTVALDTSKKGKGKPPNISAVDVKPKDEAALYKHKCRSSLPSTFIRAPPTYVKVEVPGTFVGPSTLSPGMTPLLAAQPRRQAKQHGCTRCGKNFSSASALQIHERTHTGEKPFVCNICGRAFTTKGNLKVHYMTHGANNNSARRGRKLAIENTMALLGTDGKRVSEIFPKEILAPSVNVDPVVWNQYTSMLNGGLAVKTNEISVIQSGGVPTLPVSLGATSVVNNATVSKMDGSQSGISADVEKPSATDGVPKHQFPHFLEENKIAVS
Strand	E-score
ATCAGTTG	0.0471
CGCCGAAC	-0.085
AGGTTACA	0.136
CGTTAATA	0.263
TAAGGATA	0.125
AGTTTTTC	0.101
CGGACGGA	-0.29
CCATGACA	0.0144
CTCCGCAA	-0.15
CTAAGGAG	-0.175
CAGATCCA	-0.0364
CCGGAGGC	-0.355
AGCAGAAG	-0.193
TCTTATCA	0.286
AAAAGGGT	0.0902
GAGCGTAC	-0.0457

Block 5 — technique: DHFR PCA, deep sequencing; sample: yeast; added: (+)-ABA 200 µM; baseline: wild-type fitted maximum; direction: higher = stronger binding
Target: ABI1, truncated, D143A, DHFR fusion (Arabidopsis thaliana)
Notes: methotrexate growth selection, single substitutions
Parent: PYL1, truncated, DHFR fusion (Arabidopsis thaliana); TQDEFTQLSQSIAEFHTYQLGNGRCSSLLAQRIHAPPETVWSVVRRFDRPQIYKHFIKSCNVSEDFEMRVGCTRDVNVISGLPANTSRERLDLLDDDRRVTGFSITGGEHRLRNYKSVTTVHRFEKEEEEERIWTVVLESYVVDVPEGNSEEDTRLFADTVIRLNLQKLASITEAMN
Change	relative binding score [%]
V40G	-11.7
E38R	75.9
Q2T	99.2
S117Y	12.4
S63G	103
G23A	93.8
L169T	2.68
A175W	83.8
G71I	2.73
E129I	98.7
S11I	90.4
E125N	102
D3F	92.2
T1N	97.2
E89R	1.23
S59W	82.8
E152F	89.3

Block 6 — technique: protein-binding microarray; form: double-stranded DNA, one strand shown; sample: in vitro; tested at: 250 nM; notes: 60-bp whole probe; added: salmon DNA 0.4 mg/ml; baseline: random background probes; direction: higher = stronger binding; shared flanks, not repeated: GCCTAGCAC … GTCTTGATTCGCTTGACGCTGCTG
Target: Interferon regulatory factor 7, full length, phosphomimetic (IRF7, Homo sapiens, UniProt Q92985, residues 1-503, S101K/S471D/S472D/S475D/S476D/S477D/S483D/S484D/S487D)
Chain of UniProt Q92985 (whole entry, unmodified, looked up): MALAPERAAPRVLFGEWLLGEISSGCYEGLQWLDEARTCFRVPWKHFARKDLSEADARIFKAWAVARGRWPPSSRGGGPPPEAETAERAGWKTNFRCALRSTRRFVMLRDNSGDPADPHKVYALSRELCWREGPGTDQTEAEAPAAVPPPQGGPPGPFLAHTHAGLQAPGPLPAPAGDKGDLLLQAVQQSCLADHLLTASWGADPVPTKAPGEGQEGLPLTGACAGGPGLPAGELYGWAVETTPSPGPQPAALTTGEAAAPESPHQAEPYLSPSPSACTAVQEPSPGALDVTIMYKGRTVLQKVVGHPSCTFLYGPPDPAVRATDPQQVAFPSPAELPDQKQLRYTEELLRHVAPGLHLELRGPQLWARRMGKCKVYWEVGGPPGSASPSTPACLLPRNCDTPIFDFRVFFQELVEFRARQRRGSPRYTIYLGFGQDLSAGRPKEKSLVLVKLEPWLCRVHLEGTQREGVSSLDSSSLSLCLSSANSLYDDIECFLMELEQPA
Strand	log fluorescence [z-score]
ATGGTCCTCTCTCTATTCAGGTGCTAG	0.515
TGAGAACTGAGTTTCGATTAGTGCTAG	7.63
CTAGGTCTCCTTTTCCTTTAGTGCTAG	2.24
GAACTTTGGCCTCTAGGTTTGTGCTAG	-0.273
GACGGTATCGACTATCGGGACGTGCTA	-0.044
TTAGAACTGAGACGGGATTAGTGCTAG	-0.578
CTGTTTTTGCTTTCTTTTTGGTGCTAG	3.17
GACGGTTCCGGTTTCCGGACGTGCTAG	6.97
GACGACATCGGGACTGGAGACGTGCTA	-0.539
GACGATATCAGGCTGGAGACGTGCTAG	-0.548
AAAGATTTACAAACTGTGAGGGTGCTA	-0.231
GGGTCTGTGCCTTTTTTTTTGTGCTAG	-0.373
TTAGGACTGCTACTGATTTAGTGCTAG	-0.581
CGAGACCTCGTCTCTATCAAAGTGCTA	-0.271
TTAGGTACCGGGTTTCGGTTAGTGCTA	7
GAAGGACTGGGTCTCGGGACGTGCTAG	-0.134
TGGTATTTTTTTGTAATCGAGTGCTAG	0.622
TTAGGTTTCCTTTTCCTCTAGTGCTAG	6.79
GACGGTTTCTTTTTCCTGACGTGCTAG	6.3
TCCATGACCTACCCTGCGTTGTGCTAG	-0.236

Block 7 — technique: competition protein-binding microarray; form: double-stranded DNA, one strand shown; sample: in vitro; tested at: 2 µM; added: Pho4 competitor, 0.05 µM; direction: higher = stronger binding; shared flanks, not repeated: … GTCTTGATTCGCTTGACGCTGCTG
Target: Centromere-binding protein 1, full length, His-tagged (CBF1, Saccharomyces cerevisiae, UniProt P17106, residues 1-351)
Chain of UniProt P17106 (whole entry, looked up): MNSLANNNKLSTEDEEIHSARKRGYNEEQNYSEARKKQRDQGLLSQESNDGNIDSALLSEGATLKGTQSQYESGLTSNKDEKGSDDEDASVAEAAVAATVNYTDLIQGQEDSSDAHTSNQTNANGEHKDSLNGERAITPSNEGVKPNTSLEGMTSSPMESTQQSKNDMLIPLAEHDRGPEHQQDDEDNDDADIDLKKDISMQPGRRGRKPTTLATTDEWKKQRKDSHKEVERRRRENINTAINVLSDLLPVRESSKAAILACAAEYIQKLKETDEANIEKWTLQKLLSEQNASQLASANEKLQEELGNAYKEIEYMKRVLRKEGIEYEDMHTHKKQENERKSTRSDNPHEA
Notes: whole 60-bp probe, lowest competitor level
Strand	fluorescence intensity [a.u.]
AGGTGCAGCCCCTGCCACGTGGGATGCGGTGTGCCC	416
CGTCCTAGTGATTGTTCGGTGGGTGCCATGAGGAAG	68.9
CTAACGAAGGTTTGAGATGTGGGTGACAAGCCAAGT	61.6
CTTCTGTAAATTTGTCACGCGACTTGACGCGCCCCG	765
GACCCGCCCCTGGGTCACGTGTTGCCTGCGGACCCG	9010
GAATTTGACCAAAACCACGTGGTTTGGCTGCAAGTT	2400
CGGGGTTAAGTTTGTCACAAAACTTGCTTGCAGCAG	79
GAGACTTTCAGCCATCACGTGTAATAAAATATCACC	5180
CTTTCCCGATCTTTTCACGTGCGATTAGCACATTTG	789
CTAGAAAAGAAACACCGCGTGGTGAATCTATGTCCA	100
GTCTTGTCTCATTGCTAGGTGGGTGTCCCCACTTCA	74.8
GGCTAGTGCCAATATCACAAACAATAGGGACATCCA	79.9
ATTTTTGAGTCAGTTTCCGTGACGGTGAAGTGAGCG	75.8
CCATCAAGTGTTCGTCACGTTTTTGCCGCCGAACTC	850
ATTTCTTTTTTTCTACACGTTGGTCTGATGTCTCAG	87.9
TACATCCCTTTTACACCCGTGCAAAAAAGGTGTTTG	96.2
CTAACGAAGGTTTTTCACGTGTTGTACAAGCCAAGT	1080
TACATTTATGGCCTGTTCGTGATGGGTCAGCGAGCC	81.5

A few entries again (block 5):
Change	relative binding score [%]
A175W	83.8
G71I	2.73
E129I	98.7
S11I	90.4
E125N	102
D3F	92.2
T1N	97.2
E89R	1.23
S59W	82.8
E152F	89.3
